Results collected from several papers.
Parts stem from different laboratories: compare values within a part only. Values joined by “and” are separate records of one study, mostly repeats; a detail may differ.
UniProt Q13422, sequence (whole entry, looked up): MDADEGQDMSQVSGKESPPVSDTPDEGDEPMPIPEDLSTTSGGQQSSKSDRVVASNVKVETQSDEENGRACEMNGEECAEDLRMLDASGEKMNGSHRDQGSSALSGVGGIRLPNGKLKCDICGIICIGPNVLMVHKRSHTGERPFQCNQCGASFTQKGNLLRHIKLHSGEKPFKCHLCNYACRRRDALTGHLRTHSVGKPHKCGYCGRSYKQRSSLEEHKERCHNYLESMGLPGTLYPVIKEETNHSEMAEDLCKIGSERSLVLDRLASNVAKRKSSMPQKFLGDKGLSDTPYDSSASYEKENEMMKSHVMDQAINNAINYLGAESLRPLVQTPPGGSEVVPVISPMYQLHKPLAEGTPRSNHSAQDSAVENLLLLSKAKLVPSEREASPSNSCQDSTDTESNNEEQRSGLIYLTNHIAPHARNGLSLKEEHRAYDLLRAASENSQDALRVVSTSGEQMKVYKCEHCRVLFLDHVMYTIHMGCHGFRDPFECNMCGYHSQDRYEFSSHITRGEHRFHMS
UniProt O95835, sequence (whole entry, looked up): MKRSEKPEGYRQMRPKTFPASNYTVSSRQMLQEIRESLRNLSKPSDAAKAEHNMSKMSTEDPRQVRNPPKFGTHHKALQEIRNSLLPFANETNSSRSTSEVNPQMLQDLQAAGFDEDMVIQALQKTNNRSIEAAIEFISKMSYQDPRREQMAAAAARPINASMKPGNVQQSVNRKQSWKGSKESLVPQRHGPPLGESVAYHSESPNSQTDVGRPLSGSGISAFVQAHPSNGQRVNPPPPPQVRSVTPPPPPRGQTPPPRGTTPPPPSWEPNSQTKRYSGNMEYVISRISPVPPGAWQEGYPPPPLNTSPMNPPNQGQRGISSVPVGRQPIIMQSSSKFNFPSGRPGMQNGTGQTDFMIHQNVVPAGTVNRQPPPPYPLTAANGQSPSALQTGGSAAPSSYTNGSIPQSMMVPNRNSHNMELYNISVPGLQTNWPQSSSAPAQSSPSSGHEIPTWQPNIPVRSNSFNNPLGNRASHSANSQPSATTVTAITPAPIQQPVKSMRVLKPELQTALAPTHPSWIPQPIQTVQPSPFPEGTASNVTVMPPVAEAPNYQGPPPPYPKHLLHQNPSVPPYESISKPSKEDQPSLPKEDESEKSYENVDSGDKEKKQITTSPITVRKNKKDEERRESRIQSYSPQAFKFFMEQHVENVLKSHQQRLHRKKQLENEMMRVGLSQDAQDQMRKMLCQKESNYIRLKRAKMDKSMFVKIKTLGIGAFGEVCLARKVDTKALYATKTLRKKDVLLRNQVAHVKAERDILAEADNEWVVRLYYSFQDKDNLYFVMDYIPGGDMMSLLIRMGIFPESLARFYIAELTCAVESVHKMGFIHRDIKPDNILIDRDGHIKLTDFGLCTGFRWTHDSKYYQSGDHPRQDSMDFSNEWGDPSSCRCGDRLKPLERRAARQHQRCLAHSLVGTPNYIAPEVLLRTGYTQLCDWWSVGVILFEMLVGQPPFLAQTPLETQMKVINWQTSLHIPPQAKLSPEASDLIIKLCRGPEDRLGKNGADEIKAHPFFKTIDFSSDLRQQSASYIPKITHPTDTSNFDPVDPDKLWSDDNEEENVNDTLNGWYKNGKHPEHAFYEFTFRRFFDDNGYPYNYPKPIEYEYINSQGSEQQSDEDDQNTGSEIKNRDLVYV
UniProt Q9UQB9, sequence (whole entry, looked up): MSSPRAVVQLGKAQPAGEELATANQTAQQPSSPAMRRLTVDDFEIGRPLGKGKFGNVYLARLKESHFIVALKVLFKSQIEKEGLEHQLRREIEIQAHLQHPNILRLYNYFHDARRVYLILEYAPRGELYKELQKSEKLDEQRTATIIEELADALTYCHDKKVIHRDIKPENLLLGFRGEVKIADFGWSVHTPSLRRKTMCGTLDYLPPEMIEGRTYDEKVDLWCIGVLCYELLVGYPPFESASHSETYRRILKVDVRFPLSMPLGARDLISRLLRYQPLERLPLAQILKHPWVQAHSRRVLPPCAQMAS
UniProt Q9UBF8, sequence (whole entry, looked up): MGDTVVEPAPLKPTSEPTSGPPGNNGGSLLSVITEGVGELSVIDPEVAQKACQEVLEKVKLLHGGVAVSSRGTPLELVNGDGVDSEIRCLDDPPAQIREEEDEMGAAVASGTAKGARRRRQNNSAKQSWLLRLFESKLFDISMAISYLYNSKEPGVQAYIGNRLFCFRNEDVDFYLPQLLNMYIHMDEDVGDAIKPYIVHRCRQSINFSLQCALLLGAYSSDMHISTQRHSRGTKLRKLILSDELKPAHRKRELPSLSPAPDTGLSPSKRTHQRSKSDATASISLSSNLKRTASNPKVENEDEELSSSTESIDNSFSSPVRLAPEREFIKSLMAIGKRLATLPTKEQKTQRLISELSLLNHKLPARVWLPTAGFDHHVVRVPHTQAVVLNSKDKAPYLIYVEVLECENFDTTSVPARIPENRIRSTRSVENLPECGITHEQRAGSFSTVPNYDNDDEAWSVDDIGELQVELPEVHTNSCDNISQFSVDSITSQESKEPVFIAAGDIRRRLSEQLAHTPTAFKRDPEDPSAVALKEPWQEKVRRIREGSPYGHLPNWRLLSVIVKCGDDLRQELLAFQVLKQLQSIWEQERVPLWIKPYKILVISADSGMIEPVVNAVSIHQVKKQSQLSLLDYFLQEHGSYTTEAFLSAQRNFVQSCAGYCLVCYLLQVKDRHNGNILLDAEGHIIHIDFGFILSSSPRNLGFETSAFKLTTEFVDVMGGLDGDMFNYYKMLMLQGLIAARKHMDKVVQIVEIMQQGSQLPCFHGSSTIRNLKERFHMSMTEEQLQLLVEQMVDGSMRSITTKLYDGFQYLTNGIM
UniProt Q9UKS7, sequence (whole entry, looked up): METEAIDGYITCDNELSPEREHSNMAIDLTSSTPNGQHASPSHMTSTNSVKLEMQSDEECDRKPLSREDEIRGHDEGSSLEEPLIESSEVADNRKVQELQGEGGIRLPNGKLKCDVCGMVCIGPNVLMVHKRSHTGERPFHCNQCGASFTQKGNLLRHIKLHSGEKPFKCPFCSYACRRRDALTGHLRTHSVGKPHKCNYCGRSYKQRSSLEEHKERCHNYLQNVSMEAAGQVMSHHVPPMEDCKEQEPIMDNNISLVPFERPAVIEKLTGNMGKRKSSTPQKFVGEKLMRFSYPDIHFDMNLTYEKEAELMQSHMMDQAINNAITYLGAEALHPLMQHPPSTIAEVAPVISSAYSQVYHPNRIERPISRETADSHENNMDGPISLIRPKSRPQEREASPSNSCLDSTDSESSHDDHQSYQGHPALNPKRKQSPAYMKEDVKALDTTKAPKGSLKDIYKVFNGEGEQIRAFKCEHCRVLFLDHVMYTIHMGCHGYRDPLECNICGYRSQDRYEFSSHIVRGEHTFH
UniProt P25106, sequence (whole entry, looked up): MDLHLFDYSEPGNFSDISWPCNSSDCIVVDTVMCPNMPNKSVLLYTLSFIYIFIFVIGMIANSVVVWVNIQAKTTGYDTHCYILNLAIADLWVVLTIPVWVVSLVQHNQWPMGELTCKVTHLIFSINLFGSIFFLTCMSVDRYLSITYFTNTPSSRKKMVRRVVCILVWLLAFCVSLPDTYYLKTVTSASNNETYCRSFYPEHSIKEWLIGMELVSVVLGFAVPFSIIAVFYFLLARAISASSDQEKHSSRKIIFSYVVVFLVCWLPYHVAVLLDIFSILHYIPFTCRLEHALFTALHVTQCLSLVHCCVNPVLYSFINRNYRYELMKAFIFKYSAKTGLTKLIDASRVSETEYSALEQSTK

Block 1
Target: Diamine acetyltransferase 1 (Homo sapiens, UniProt P21673)
Mode: inhibitor
Concentration: 10 µM
Baseline: control
Quantity: remaining activity
Construct (P21673 1-171): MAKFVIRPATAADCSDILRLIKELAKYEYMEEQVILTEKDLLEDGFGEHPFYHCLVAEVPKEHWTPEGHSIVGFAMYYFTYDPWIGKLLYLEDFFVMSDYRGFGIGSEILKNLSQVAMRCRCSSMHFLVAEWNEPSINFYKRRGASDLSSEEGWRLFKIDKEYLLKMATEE
O=c1c(O[C@@H]2O[C@H](CO)[C@@H](O)[C@H](O)[C@H]2O)c(-c2ccc(O)cc2)oc2cc(O)cc(O)c12: 115%
COc1cc2c(cc1OC)[C@@H](Cc1ccc(O)c(Oc3cc4c(cc3OC)CCN(C)[C@@H]4Cc3ccc(O)cc3)c1)N(C)CC2: 99.9%
CC(C)[C@@H]1CC[C@@H](C)C[C@H]1O: 87.3%
CC=CC(=O)C1=C(C)C=CCC1(C)C: 99.4%
OC/C=C/c1ccccc1: 82.5%
CC1=CC(=O)[C@H]2C[C@@H]1C2(C)C: 99.9%
C[C@@H]1O[C@@H](O[C@H]2[C@H](OC(=O)[C@]34CCC(C)(C)C[C@H]3C3=CC[C@@H]5[C@@]6(C)C[C@H](O)[C@H](O[C@@H]7O[C@H](CO)[C@@H](O)[C@H](O)[C@H]7O)[C@](C)(CO)[C@@H]6CC[C@@]5(C)[C@]3(C)C[C@H]4O)OC[C@H](O)[C@@H]2O)[C@H](O)[C@H](O)[C@H]1O[C@@H]1OC[C@@H](O)[C@H](O[C@@H]2OC[C@](O)(CO)[C@H]2O)[C@H]1O: 97.2%
CCCCCCCCC[C@H](O)CC(=O)CCc1ccc(O)c(OC)c1: 115%
C=C(C)[C@@H]1CC[C@]2(C)CC[C@]3(C)[C@H](CC[C@@H]4[C@@]5(C)CCC(=O)C(C)(C)[C@@H]5CC[C@]43C)[C@@H]12: 83.3%
CCCCCCCCCCCCCCCCCC(=O)O: 91.3%

Block 2
Structure (SMILES): O=c1nc(-c2ccccn2)sc2ccccc12
Concentration: 1 µM
Quantity: remaining binding
IGF1R (Homo sapiens, UniProt P08069); cell-free assay, competition with immobilised ligand: 80%
PIP5K1A (Homo sapiens, UniProt Q99755); cell-free assay, competition with immobilised ligand: 100%
EPHA2 (Homo sapiens, UniProt P29317); cell-free assay, competition with immobilised ligand: 100%
OXSR1 (Homo sapiens, UniProt O95747); binding, competition with immobilised ligand: 100%
ITK (Homo sapiens, UniProt Q08881); binding, competition with immobilised ligand: 82%
HIPK3 (Homo sapiens, UniProt Q9H422); binding, competition with immobilised ligand: 92%
TEK (Homo sapiens, UniProt Q02763); cell-free assay, competition with immobilised ligand: 99%
Non-receptor tyrosine-protein kinase TYK2, JH1 (TYK2, Homo sapiens, UniProt P29597); binding, competition with immobilised ligand: 100%
Tyrosine-protein kinase ABL1, phosphorylated (ABL1, Homo sapiens, UniProt P00519, F317I); binding: 91%
HIPK1 (Homo sapiens, UniProt Q86Z02); binding, competition with immobilised ligand: 61%
PI4KB (Homo sapiens, UniProt Q9UBF8); cell-free assay, competition with immobilised ligand: 71%
FLT4 (Homo sapiens, UniProt P35916); cell-free assay, competition with immobilised ligand: 84%
CDC42BPA (Homo sapiens, UniProt Q5VT25); cell-free assay, competition with immobilised ligand: 91%
PRKACA (Homo sapiens, UniProt P17612); cell-free assay, competition with immobilised ligand: 91%
Aurora kinase C (AURKC, Homo sapiens, UniProt Q9UQB9); binding, competition with immobilised ligand: 97%
MELK (Homo sapiens, UniProt Q14680); binding, competition with immobilised ligand: 82%
NEK6 (Homo sapiens, UniProt Q9HC98); binding, competition with immobilised ligand: 100%
NUAK2 (Homo sapiens, UniProt Q9H093); binding, competition with immobilised ligand: 100%
MYLK3 (Homo sapiens, UniProt Q32MK0); binding, competition with immobilised ligand: 100%
MAPK15 (Homo sapiens, UniProt Q8TD08); binding, competition with immobilised ligand: 100%
PRKD2 (Homo sapiens, UniProt Q9BZL6); binding, competition with immobilised ligand: 97%
LATS1 (Homo sapiens, UniProt O95835); binding, competition with immobilised ligand: 95%
STK32C (Homo sapiens, UniProt Q86UX6); binding, competition with immobilised ligand: 100%
DCLK3 (Homo sapiens, UniProt Q9C098); binding, competition with immobilised ligand: 97%
CSNK1G1 (Homo sapiens, UniProt Q9HCP0); cell-free assay, competition with immobilised ligand: 96%

Block 3
Compound: O=C1CCC(N2Cc3cc(C4CCN(Cc5ccccc5)CC4)ccc3C2=O)C(=O)N1 (centres unmarked)
Mode: degrader
Quantity: remaining protein
Zinc finger protein Aiolos: Zinc finger protein Aiolos (Homo sapiens, UniProt Q9UKT9)
UniProt Q9UKT9, sequence (whole entry, looked up): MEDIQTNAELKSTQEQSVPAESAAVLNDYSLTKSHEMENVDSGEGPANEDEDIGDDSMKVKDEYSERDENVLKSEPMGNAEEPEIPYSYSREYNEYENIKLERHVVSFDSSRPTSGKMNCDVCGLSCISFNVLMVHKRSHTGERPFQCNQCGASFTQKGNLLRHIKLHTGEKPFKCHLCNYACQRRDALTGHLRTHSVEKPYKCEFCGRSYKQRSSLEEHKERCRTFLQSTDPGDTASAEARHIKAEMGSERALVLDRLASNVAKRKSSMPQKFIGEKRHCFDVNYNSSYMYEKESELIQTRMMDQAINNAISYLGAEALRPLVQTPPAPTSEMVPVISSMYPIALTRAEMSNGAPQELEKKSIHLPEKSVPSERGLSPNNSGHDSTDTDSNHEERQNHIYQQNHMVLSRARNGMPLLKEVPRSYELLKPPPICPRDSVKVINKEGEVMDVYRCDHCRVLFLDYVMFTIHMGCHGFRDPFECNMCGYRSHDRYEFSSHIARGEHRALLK
GSPT1: Eukaryotic peptide chain release factor GTP-binding subunit ERF3A (GSPT1, Homo sapiens, UniProt P15170)
UniProt P15170, sequence (whole entry, looked up): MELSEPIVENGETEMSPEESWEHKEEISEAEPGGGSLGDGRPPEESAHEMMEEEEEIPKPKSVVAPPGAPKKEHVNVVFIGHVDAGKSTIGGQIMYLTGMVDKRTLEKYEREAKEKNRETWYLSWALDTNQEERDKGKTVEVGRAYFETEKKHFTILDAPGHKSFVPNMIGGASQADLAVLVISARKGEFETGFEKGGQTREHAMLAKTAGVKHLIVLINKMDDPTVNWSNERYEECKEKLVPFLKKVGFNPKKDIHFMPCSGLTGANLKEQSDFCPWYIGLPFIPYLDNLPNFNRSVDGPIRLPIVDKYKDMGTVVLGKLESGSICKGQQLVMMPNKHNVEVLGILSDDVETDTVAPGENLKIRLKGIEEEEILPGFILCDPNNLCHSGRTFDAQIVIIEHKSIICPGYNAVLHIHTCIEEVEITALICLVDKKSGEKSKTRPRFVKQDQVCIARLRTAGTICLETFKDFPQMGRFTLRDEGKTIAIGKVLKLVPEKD
CSNK1A1: Casein kinase I isoform alpha (CSNK1A1, Homo sapiens, UniProt P48729)
UniProt P48729, sequence (whole entry, looked up): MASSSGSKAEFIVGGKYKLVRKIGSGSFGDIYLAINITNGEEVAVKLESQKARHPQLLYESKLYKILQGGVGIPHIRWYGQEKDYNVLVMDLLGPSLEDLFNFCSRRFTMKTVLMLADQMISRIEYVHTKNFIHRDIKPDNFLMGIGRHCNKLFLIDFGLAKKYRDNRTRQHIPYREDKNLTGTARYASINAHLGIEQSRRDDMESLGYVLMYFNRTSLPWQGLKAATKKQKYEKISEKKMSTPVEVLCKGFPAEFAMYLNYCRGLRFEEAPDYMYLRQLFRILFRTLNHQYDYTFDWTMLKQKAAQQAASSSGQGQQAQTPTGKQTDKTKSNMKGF
Zinc finger protein Aiolos; HiBiT; HEK293; 0.1235 µM, 6 h: 83.7%
GSPT1; HiBiT; HEK293; 0.01372 µM: 111% and 94.7%
Zinc finger protein Aiolos; HiBiT; HEK293; 0.04115 µM: 87.9% and 94.5%
CSNK1A1; HiBiT; HEK293; 0.004572 µM, 6 h: 86.7%
GSPT1; HiBiT; HEK293; 0.004572 µM: 88.9% and 89.1%
DNA-binding protein Ikaros (Homo sapiens, UniProt Q13422); HiBiT; HEK293; 0.3704 µM: 99.6% and 86.2%
CSNK1A1; HiBiT; HEK293; 0.0001694 µM, 6 h: 107%
GSPT1; HiBiT; HEK293; 0.1235 µM, 6 h: 100%
Zinc finger protein Aiolos; HiBiT; HEK293; 0.001524 µM, 6 h: 88.9%
CRBN/Zinc finger protein Helios (Homo sapiens, UniProt Q96SW2+Q9UKS7); flow cytometry; primary human regulatory T cells; 0.004115 µM, 6 h: 101%

Block 4
Compound: NC(N)=NC(=O)c1nc(Cl)c(N2CCCCCC2)nc1N
Mode: agonist
Concentration: 10 µM
Baseline: untreated
Quantity: fold over basal
ACKR3 (Homo sapiens, UniProt P25106); β-arrestin recruitment, PRESTO-Tango: 7.61
HTR2C (Homo sapiens, UniProt P28335); β-arrestin recruitment, PRESTO-Tango: 0.46
FFAR1 (Homo sapiens, UniProt O14842); β-arrestin recruitment, PRESTO-Tango: 1.44 fold
Nociceptin receptor (OPRL1, Homo sapiens, UniProt P41146); PRESTO-Tango arrestin recruitment: 0.71
GPR52 (Homo sapiens, UniProt Q9Y2T5); β-arrestin recruitment, PRESTO-Tango: 0.92
Relaxin receptor 1 (RXFP1, Homo sapiens, UniProt Q9HBX9); β-arrestin recruitment, PRESTO-Tango: 0.87
CRHR2 (Homo sapiens, UniProt Q13324); β-arrestin recruitment, PRESTO-Tango: 1.01
LPAR2 (Homo sapiens, UniProt Q9HBW0); β-arrestin recruitment, PRESTO-Tango: 0.82
